Measured values of several laboratories.
Compare with care: the assays were run in different laboratories. Numbers after ± are the reported error.

CC(C)c1cnc(-c2cc(Cl)ccc2F)cc1Nc1ccncc1C(=O)NC(CO)CO
patients with AST increase (patients, phase I monotherapy; oral, dose not given, grade 5): 0%

CN(C)c1ccc(-c2nc3ccc(OCCCCCN4CCN5CCN(CC4)CC(=O)[O][Al]([18F])[O]C(=O)C5)cc3s2)cc1
tissue uptake (ICR mouse, heart; intravenous, 2 min): 8.65 ± 1.34 %ID/g

CC[C@H](C)[C@H](NC(=O)[C@@H]1CCCN1C(=O)CNC(=O)[C@H](Cc1ccccc1)NC(=O)[C@H](CC(N)=O)NC(=O)[C@H](CC(N)=O)NC(=O)[C@H](CO)NC(=O)[C@H](CO)NC(=O)[C@H](Cc1c[nH]cn1)NC(=O)[C@@H](NC(=O)[C@H](CC(C)C)NC(=O)[C@H](Cc1ccccc1)NC(=O)[C@H](CC(N)=O)NC(=O)[C@H](C)NC(=O)[C@H](CC(C)C)NC(=O)[C@H](CCCNC(=N)N)NC(=O)[C@H](CCC(N)=O)NC(=O)[C@@H](NC(=O)[C@H](C)NC(=O)[C@@H]1CSSC[C@H](NC(=O)[C@@H](N)CCCCN)C(=O)N[C@@H](CC(N)=O)C(=O)N[C@@H]([C@@H](C)O)C(=O)N[C@@H](C)C(=O)N[C@@H]([C@@H](C)O)C(=O)N1)[C@@H](C)O)C(C)C)C(=O)N[C@@H](CC(C)C)C(=O)N[C@@H](CO)C(=O)N[C@@H](CO)C(=O)N[C@H](C(=O)N[C@@H](CC(N)=O)C(=O)N[C@H](C(=O)NCC(=O)N[C@@H](CO)C(=O)N[C@@H](CC(N)=O)C(=O)N[C@H](C(=O)N[C@@H](Cc1ccc(O)cc1)C(N)=O)[C@@H](C)O)C(C)C)[C@@H](C)O
collision cross section (ion mobility mass spectrometry; nitrogen drift gas; monomer charge +4, compact conformer): 552 ± 13.4 Å²

NCC(=O)N1CCC[C@H]1C(=O)N1C[C@H](O)C[C@H]1C(=O)O
log beta (potentiometric titration; 37 °C, MA2 complex, together with: Fe(III)): 23

CC12CC(c3ccc(S(C)(=O)=O)cc3)C3=C4CCC(=O)C=C4CCC3C1CCC2(O)C(F)(F)C(F)(F)F (stereo not shown)
Vd/F (human, plasma; oral, 5 mg, single dose, fasted): 691 L

COc1cc(/C=C/C(=O)N2CCc3ccccc3C2)ccc1O[11CH3]
maximum uptake (PET-CT imaging; C57BL/6 mouse, male, kidney; intravenous, dynamic scan over 60 min): 18.7 ± 0.13 %ID/cc

Oc1ccc2ccccc2c1/N=N/c1ccc(/N=N/c2ccccc2)cc1
measured concentration (rat whole blood; 5.0 µg/L, 30 days, -20 °C, long-term storage): 5.07 µg/L

C[C@H]1NSc2nc(=O)c3[nH]ccc3n2Cc2ccc(Cl)cc21
exposure ratio (rat, male, plasma; 125 mg/kg; reference: rat over human 5 mg): not detected

COCC1CN(C2CCN(c3cc(OC)c(Nc4ncc(Br)c(Nc5ccc6c(c5P(C)(C)=O)OCCO6)n4)cc3C)CC2)C1
treatment-related AST increased, all grades (human patients; oral, 10 to 240 mg once daily): 33.3%

O=C(COc1ccc(CO)cc1)N(Cc1cccs1)c1cc[nH]n1
relative peak area (LC-MS EIC; dog liver microsomes, pooled, both sexes; 10 µM, 60 min; reference: reference compound at start): 13.7%

Cn1cc(-c2cc(N3CCCCS3(=O)=O)ccc2N[C@H]2CC[C@H](C)CC2)c2cc[nH]c2c1=O (stereo in doubt)
Vss (Sprague-Dawley rat, plasma; intravenous, 1 mg/kg): 4.21 L/kg

Cn1c(=O)oc2ccc(-c3ccc(CC(C#N)NC(=O)C4CNCCCO4)c(F)c3)cc21 (stereo not shown)
subjects with TRAE (refers to: alanine aminotransferase increased; human; 40 mg single dose, fasted): 16.7%

NC[C@@H](C(=O)Nc1ccc(-c2cn[nH]c2)cc1)c1ccccc1
cornea score (OECD 405 eye irritation; New Zealand White rabbit, eye; topical, 0.1%, 49 h (day 3), scale 0 to 4; direction not given): 0

COc1cc(C(=O)COC(=O)CCCN)ccc1O
triplet lifetime (pump-probe transient absorption; water): 0.77 ns

O=[11C](OC(C(F)(F)F)C(F)(F)F)N1CCC(CNS(=O)(=O)c2ccc(Cl)cc2)CC1
plateau brain radioactivity (PET; Sprague-Dawley rat, brain; intravenous, dose not given, after 10 min, scan 60 min): 1.5 SUV

CCCCCCCCCCCCCCCC(=O)N[C@@H](CCCCN)C(=O)N[C@@H](CCCCN)C(=O)N[C@@H](CO)C(=O)N[C@@H](CCCNC(=N)N)C(=O)N[C@@H](C)C(=O)N[C@@H](CC(C)C)C(=O)N[C@@H](Cc1ccccc1)C(N)=O
activated clotting time (human, whole blood of PCI patients; up to 150 µM): no effect

C[C@@H]1CC[C@@H]([C@@](O)(CNCc2ccc(F)cc2)COCc2ccc(F)cc2)[C@H](OCc2ccc(F)cc2)C1
permeability (PAMPA-GI; phosphatidylcholine-cholesterol membrane; 500 µM, 4 h, pH 6.5, 37 °C, 5% DMSO): 227 ± 8 nm/s

CC1=C(C2=C(C)C(=O)c3c(cc(O)c(O)c3Cc3ccccc3)C2=O)C(=O)c2cc(O)c(O)c(Cc3ccccc3)c2C1=O (racemic)
degraded compound (rat liver microsomes; 4 µM, 1 h, pH 7.4): 19.3 ± 5.4%

COC(=O)c1ccc(-c2cn(Cc3cc(Cl)ccc3O[11CH3])nn2)cc1
distribution volume VT (PET, 1TCM; rhesus macaque, cerebellum; dose not given): 0.943 mL/cm³

CC[C@@H](C)[C@H]1NC(=O)[C@@H]([C@H](C)O)NC(=O)[C@@H](Cc2c[nH]cn2)NC(=O)CNC(=O)[C@@H](CCCNC(=N)N)NC(=O)CNC(=O)[C@@H](Cc2ccccc2)NC1=O
retina to vitreous ratio (rat; eye drop, single dose; reference: retina over vitreous): ~10 fold

Cc1ccc(/N=N/c2c(O)ccc3ccccc23)c(C)c1
measured concentration (extracted rat blood QC samples; 0.2 µg/L, 2 h, room temperature, short-term stability): 0.213 µg/L

CC12CC(c3ccc(C(=O)CO)cc3)C3=C4CCC(=O)C=C4CCC3C1CCC2(O)C(F)(F)C(F)(F)F (stereo not shown)
maximal oral bioavailability (human liver microsomes; 100 % absorption assumed): 58%

CCCC[C@@H]1NC(=O)[C@@H](NC(=O)[C@H](CCC(=O)O)NC(=O)CNC(=O)CN2CCN(CC(=O)O)CCN(CC(=O)O)CCN(CC(=O)O)CC2)CCCCNC(=O)C[C@@H](C(N)=O)NC(=O)[C@H](C(C)C)NC(=O)[C@@H]2CCCN2C(=O)[C@H](CCCNC(=N)N)NC(=O)CNC(=O)[C@H](Cc2c[nH]c3ccccc23)NC(=O)[C@H](CCCNC(=N)N)NC(=O)[C@@H](Cc2ccccc2)NC(=O)[C@H](Cc2c[nH]cn2)NC(=O)[C@H](CCC(=O)O)NC1=O [gallium-67 labelled]
tissue uptake (normal C57 mice, muscle; intravenous, 0.037 MBq/mouse, 2 h): 0.1 ± 0.05 %ID/g

N=C(N)NCCC[C@@H]1NC(=O)[C@H](Cc2c[nH]c3ccccc23)NC(=O)[C@@H](CC2CCCCC2)NC(=O)[C@@H]2CCCN2C(=O)[C@@H](NC(=O)CCc2ccccc2)CCCNC1=O
apparent peripheral volume (V2/F) (C57BL/6J mice, spinal cord; oral, 1 mg/kg, two-compartment model): < 0.001 µg/(ng/g)

COc1ccccc1NC(=O)OC1C(C)C(OC)C=COC2(C)Oc3c(C)c(O)c4c(c3C2=O)C2=NC3(CCN(CC(C)C)CC3)NC2=C(NC(=O)C(C)=CC=CC(C)C(O)C(C)C(O)C1C)C4=O (stereo not shown)
fAUC/MIC ratio (CD-1 mouse female, plasma; oral, 10 mg/kg): 1

CCC(C)(C)NCC(=O)O
logP (shake flask; water; 24 h): -1.28

CC/C=C\C/C=C\C/C=C\C/C=C\C/C=C\CCCCOC(CC)C(=O)O (stereo not shown)
radioactivity concentration ([14C] label; male Wistar rat, kidney medulla; oral, 100 mg/kg, 4 h): 102 µg equiv/g

COc1ccc2cc(-c3ccc(-c4ccc(C)cn4)nc3)oc2c1
radiative decay rate constant (TCSPC; MeOH): 0.36 ns⁻¹

N=C(N)NCCC[C@H](NC(=O)CON=C[C@H](F)[C@@H](O)[C@H](O)[C@H](O)CO)C(=O)NCC(=O)N[C@@H](CC(=O)O)C(=O)O [fluorine-18 labelled]
tissue ratio (nude mice, U-87 MG xenograft; intravenous, 0.5 h; reference: tumour over liver): 2.17 ± 0.76

CC(C)(O)c1ncc([S@](N)(=O)=NC(=O)Nc2c3c(cc4c2CCC4)CCC3)s1
AUC(0-t) (human, plasma; oral, 10 mg, single dose, fasted, healthy volunteers): 9.44 µg·h/mL

NC12CNCCNCC(NCc3ccc(CNC(=O)CCCC(=O)NCc4ccc(-c5nncnn5)cc4)cc3)(CNCCNC1)CNCCNC2.[64Cu+2]
mean absorbed dose (OLINDA dosimetry; liver; 24 h pretargeting interval, together with: huA33-TCO pretargeting): 0.0301 rad/mCi

CCCC[C@H](NC(=O)CNC(=O)CNC(=O)CN1CCN(CC(=O)O)CCN(CC(=O)O)CCN(CC(=O)O)CC1)C(=O)N[C@H]1CC(=O)NCCCC[C@@H](C(N)=O)NC(=O)[C@H](Cc2c[nH]c3ccccc23)NC(=O)[C@H](CCCNC(=N)N)NC(=O)[C@@H](Cc2ccccc2)NC(=O)[C@H](Cc2c[nH]cn2)NC1=O [gallium-67 labelled]
tumour to tissue uptake ratio (C57 mice, female, B16/F1 melanoma, tumour over blood; intravenous, 0.037 MBq, 4 h): 47.7

OCc1cn(Cc2ccc(-c3noc(-c4ccc(OCC[18F])c(C(F)(F)F)c4)n3)cc2)nn1
tracer uptake (rat, brain; intravenous, 5 min): 0.49 %ID/g

CCCCN1C(=O)c2cccc3c(NCCCCCN4CCOCC4)ccc(c23)C1=O
average fluorescence lifetime (aqueous medium; pH 6): 4.3 ns

Repeated from above:
Cn1cc(-c2cc(N3CCCCS3(=O)=O)ccc2N[C@H]2CC[C@H](C)CC2)c2cc[nH]c2c1=O (stereo in doubt)
Vss (Sprague-Dawley rat, plasma; intravenous, 1 mg/kg): 4.21 L/kg

CCCC[C@H](NC(=O)CNC(=O)CNC(=O)CN1CCN(CC(=O)O)CCN(CC(=O)O)CCN(CC(=O)O)CC1)C(=O)N[C@H]1CC(=O)NCCCC[C@@H](C(N)=O)NC(=O)[C@H](Cc2c[nH]c3ccccc23)NC(=O)[C@H](CCCNC(=N)N)NC(=O)[C@@H](Cc2ccccc2)NC(=O)[C@H](Cc2c[nH]cn2)NC1=O [gallium-67 labelled]
tumour to tissue uptake ratio (C57 mice, female, B16/F1 melanoma, tumour over blood; intravenous, 0.037 MBq, 4 h): 47.7
